Measurements collected from several papers.
Numbered parts are unrelated; each lists some results of a single study. Substitutions count along the parent as printed.

Set 1 — technique: RNA Bind-n-Seq; molecule type: RNA; medium: in vitro; concentration: 200 nM; notes: whole 134-nt RNA, ends assumed; added: 150 mM LiCl; baseline: input library; direction: higher = stronger binding; measurement: log2 enrichment; all molecules: 7-deaza-guanosine replaces G
Target: Ras GTPase-activating protein-binding protein 1, full length (G3BP1, Homo sapiens, UniProt Q13283)
UniProt Q13283, sequence (whole entry, looked up): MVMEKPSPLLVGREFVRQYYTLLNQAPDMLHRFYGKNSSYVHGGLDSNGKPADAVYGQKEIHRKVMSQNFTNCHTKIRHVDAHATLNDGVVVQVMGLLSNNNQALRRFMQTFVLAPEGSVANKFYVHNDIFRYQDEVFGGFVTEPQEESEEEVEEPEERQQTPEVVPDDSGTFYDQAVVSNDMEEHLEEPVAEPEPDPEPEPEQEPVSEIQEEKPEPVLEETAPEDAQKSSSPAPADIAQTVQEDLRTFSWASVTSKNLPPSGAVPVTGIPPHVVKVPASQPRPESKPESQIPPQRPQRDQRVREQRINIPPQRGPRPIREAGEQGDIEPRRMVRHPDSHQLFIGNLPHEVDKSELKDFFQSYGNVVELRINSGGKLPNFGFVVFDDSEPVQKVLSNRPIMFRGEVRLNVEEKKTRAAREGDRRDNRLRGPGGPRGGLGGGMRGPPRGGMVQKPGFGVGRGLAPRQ
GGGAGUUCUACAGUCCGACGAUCAAGUCCUGUGCUACACAUCGUAUGUACCGAAUCGGGUGGGAAAGGGAAAAAAAGGGAAAGUAUUAUGUUACGCCGUUCGGAUCUGCACUUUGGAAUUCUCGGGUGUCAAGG: 0.233
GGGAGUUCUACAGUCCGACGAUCACCAUGCAGGUGGGCAUCUUUGGGAAGUGGGGCAAGGGGGGGAUAGGUAGGGGGGUAACACUUUGGGAACAGGUGGUCCCAGGUCGUUUCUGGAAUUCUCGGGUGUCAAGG: 0.393
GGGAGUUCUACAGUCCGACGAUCAGUCCUGUGCUACACAUCGUAUGUACCGAAUCGGAAAAAGGAAAAAGGUUUUUUUGGAAAGUAUUAUGUUACGCCGUUCGGAUCUGCACUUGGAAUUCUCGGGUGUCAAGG: -2.34
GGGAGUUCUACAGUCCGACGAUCUGGGAGGUGGAUUUUGUUUAUUUUUUUAGCUCAUUUCCAGGGGUGGGAAGUUUUUUUUAAUAUGUGUCAUGAAUAAAGUUGUUUUUGAAAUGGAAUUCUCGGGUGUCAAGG: 0.0613
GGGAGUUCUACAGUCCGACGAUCAAGUCCUGUGCUACACAUCGUAUGUACCGAAUCGGAAAAGGGGAAAAGGGAAAAGGAAAGUAUUAUGUUACGCCGUUCGGAUCUGCACUUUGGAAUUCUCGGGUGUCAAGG: -0.226
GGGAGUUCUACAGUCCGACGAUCACCAUGCAGGUGGGCAUCUUUGGGAAGUGGGGCAAGGGGGGGAUAGGGAGGGGGGUAACACAAAGGGAACAGGUGGUCCCAGGUCGUUUCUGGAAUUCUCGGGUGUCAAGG: -0.0824
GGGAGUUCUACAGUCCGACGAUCUGGGAGGUGGAUUUUGUUUAUUUUUUUAGAUCAUUUCCAGGGGUGGGAAUUUUUUUUUAAUAUGUGUCAUGAAUAAAGUUGUUUUUGAAAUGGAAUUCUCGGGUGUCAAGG: -0.716
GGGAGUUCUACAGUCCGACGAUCAAGUCCUGUGCUACACAUCGUAUGUACCGAAUCGGAAAAGGGGAAAAGGGGAAAAGGAAAGUAUUAUGUUACGCCGUUCGGAUCUGCACUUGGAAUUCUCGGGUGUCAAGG: 0.288
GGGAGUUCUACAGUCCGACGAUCCCUGUGCUACACAUCGUAUGUACCGAAUCGGUUUUUUUGGGGUUUUUUUGGGUUUUUUUGGAAAGUAUUAUGUUACGCCGUUCGGAUCUGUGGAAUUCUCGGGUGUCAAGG: 1.38
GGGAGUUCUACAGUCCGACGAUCGUCCUGUGCUACACAUCGUAUGUACCGAAUCGGGCCCCCGGGGCCCCCGGGCCCCCGGGAAAGUAUUAUGUUACGCCGUUCGGAUCUGCAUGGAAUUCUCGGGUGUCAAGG: -1.65
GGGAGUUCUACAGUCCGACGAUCGUCCUGUGCUACACAUCGUAUGUACCGAAUCGGGUUUUUUUGGGUUUUUUUGGGAGGGAAAGUAUUAUGUUACGCCGUUCGGAUCUGCACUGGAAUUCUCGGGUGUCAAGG: 0.398

Set 2 — technique: DHFR PCA, deep sequencing; medium: yeast; added: (+)-ABA 4.8 µM; baseline: wild-type fitted maximum; direction: higher = stronger binding; measurement: relative binding score
Target: ABI1, truncated, D143A, DHFR fusion (Arabidopsis thaliana)
Notes: methotrexate growth selection, single substitutions
Parent: PYL1, truncated, DHFR fusion (Arabidopsis thaliana); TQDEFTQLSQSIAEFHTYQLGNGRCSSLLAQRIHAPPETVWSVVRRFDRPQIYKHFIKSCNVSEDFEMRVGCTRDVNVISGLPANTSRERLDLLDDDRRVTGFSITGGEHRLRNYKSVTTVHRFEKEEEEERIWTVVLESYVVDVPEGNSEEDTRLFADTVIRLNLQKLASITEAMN
M176S: 54.4%
E67M: 54.9%
L112H: -13.7%
L20C: 80.6%
T120H: -1.71%
V78P: 4.09%
Q2L: 76.9%
I57T: -5.72%
N77Y: 76.8%
E131H: 84%
V100P: -10.6%
K54W: 3.29%
Y53D: -9.1%
V161R: -7.75%
C72D: 61.7%
T39E: 57.1%
V44T: -14.8%
E147S: 62.1%
L138A: -4.33%
V145L: 25.3%

Set 3 — technique: RNA Bind-n-Seq; molecule type: RNA; medium: in vitro; concentration: 365 nM; baseline: no-protein control; direction: higher = stronger binding; measurement: RBNS enrichment (R)
Target: RNA binding protein fox-1 homolog 2, RRM domain, GST-SBP tag (RBFOX2, Homo sapiens, UniProt O43251-10, residues 100-194)
Notes: natural RNA segment, single round, ends assumed
Construct (chain): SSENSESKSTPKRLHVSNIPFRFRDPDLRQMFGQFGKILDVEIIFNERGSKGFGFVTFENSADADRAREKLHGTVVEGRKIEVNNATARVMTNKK
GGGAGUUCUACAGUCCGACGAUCACCUGCAUAGUUGCUACAUACAUGUUUCUCACUGUAAAAGGCUGCCGCUGGGUGGCAGAAGCCAAAAGACCUUAUUAACGAGGCUAUAUUUUUCUUAACUUGAUCUGCAAUGGAAUUCUCGGGUGCCAA: 0.369
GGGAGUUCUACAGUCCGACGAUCAGGCAUCAAAAUGAGUUGACAGCCAGGCCUGGUGGUACAGGCCAGUAAAGCCAGCUGCUCUGGAGGCGGAGGCAGGAGGAUCUCAAAUUCAAGCCUGCUUAAGCUACUUAUGGAAUUCUCGGGUGCCAA: 0.28
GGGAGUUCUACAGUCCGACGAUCACCAAUGGGUCCCCUAUAUCUCUCUAGAGGAACGUGAGACCCACUCCAAACAUCUAAAGCAACUGUCGAGUUGCUGUCCCCUAAAAAAAGUAAAUAAAAUACAUAUUUGAUGGAAUUCUCGGGUGCCAA: 0.554
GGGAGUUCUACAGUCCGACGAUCUGCUCCUGGGAUGCUAACCUGAUGGCCAUAGACACGGUGGGCUGGAGGCGUGGCUGGAUCUGCCCAAUCCUUCCUCAGGACCAGCCUCUCCCUUAGUAACUUGAAGGAAGUGGAAUUCUCGGGUGCCAA: 0.445
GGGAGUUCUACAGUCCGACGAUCUUCAUUUGUCAGAUCCAGUUUUCCUACAUACAUCUUUGUUCACAGUAUGCUAAGGGGAAAAAAAAAUUUAGGAUAGAAAACUUGAGCAUUGUAUAUGUUUCCUGGAUGUCUGGAAUUCUCGGGUGCCAA: 0.824
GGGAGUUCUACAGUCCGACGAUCCCAGGGCCCCACCCUGGGCUGGACAAUCAGAUCCCAAAGGAAUGCCAAAGGGGACUCGGUUGGGAGAGCCGCUUAGGGGCCAGACCUGGGUCCCCCUGCAGGUCCCCAGGUGGAAUUCUCGGGUGCCAA: 0.764
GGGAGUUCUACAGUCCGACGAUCAGUCCUACGCUGCUGCUAACGACAAUACGACGGCUUACUCUGCUACUCGAGAACUAUUUUUAUGUAAUUAAUGUAUGCUUUCUUGUUUAUAAAUGCCUGAUUUAAAAAAAUGGAAUUCUCGGGUGCCAA: 0.8
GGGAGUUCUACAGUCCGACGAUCCGGGAAGCAGCCGCGGGGAGGUAAUGAAUUGUCUGUGGUAUCAUGUCAGCAGAGUCUCCAAGCCCCACGAACCCUGAGGAGUGGAGUCAUACGCGAAGGCCAUAUGGCCAUGGAAUUCUCGGGUGCCAA: 0.56
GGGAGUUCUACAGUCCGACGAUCAGGUUCCGUGUGGAGGUGGCACUGGGCCGGGCCUCCCUCUCAGGCUCCUUUGCUGCCCACUUGUAAGUUUAAAUAAGGACACCGCCCUACACAAACCUCACCCCUGUCACUGGAAUUCUCGGGUGCCAA: 0.39
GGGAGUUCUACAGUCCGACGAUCUUUAAUAUUUGAUGCUCAUAUGUGUCUUUAGUGUGAGCUCUUGUGUUUUGAAAUGAUUGCUUCAGUCUUUGCCUUUGUUUGCAUUUGUGUUUAGUGAAAACUAGAGAAACUGGAAUUCUCGGGUGCCAA: 1.05
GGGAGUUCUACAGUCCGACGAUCACUCAGGUAAUCUCCAUUUCUGGUUUUAUAUUUUCUGUACAAACUGCCUGGGUUUUAUUUUUCUAAUCAGCAAGGUGCUUCACUGCCUUCUUGAGACGCCUCUCAAAGCUUGGAAUUCUCGGGUGCCAA: 0.386
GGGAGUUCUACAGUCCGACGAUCCAGGCCUGGAGCGUUUGCUGUGCCAGGAGGCGGCAGCUCUUCUGGGCAGAGCCUGUCCCCGCCUUCCCUCACUCUUCCUCAUCCUGCUUCUCUUUUCCUCGCAGAUGAUAUGGAAUUCUCGGGUGCCAA: 0.458

Set 4 — target: CCNB2, cyclin fold, Cln2 fusion (human); technique: yeast growth competition, sequencing; medium: yeast; notes: weak parent motif; baseline: not given; direction: higher = stronger binding; measurement: normalised enrichment score
Parent: E2F1 docking peptide (human); PPVKRRLDLETDH
PPVKRRLDLETKH [D12K]: 0.38
PKVKRRLDLETDH [P2K]: 0.781
PPVKRRPDLETDH [L7P]: 0.222
PPVKVRLDLETDH [R5V]: -0.375
PFVKRRLDLETDH [P2F]: 0.926
PPVKRTLDLETDH [R6T]: 0.246
PPVKRRLDLEDDH [T11D]: 0.378
PSVKRRLDLETDH [P2S]: 0.182
PPVKRRQDLETDH [L7Q]: 0.195
PAVKRRLDLETDH [P2A]: 0.093
PPVKRRLDLETDN [H13N]: 0.115
PPVKRRLDLETRH [D12R]: 0.415
PPVKRRLALETDH [D8A]: 0.163
PPVKRRLDLEPDH [T11P]: 0.733
PWVKRRLDLETDH [P2W]: 0.095
PPVKRRLDLETWH [D12W]: 0.342
PPVKRRGDLETDH [L7G]: 0.208
PPVKRHLDLETDH [R6H]: 0.361

A few entries again (set 3):
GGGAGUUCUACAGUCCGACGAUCACCUGCAUAGUUGCUACAUACAUGUUUCUCACUGUAAAAGGCUGCCGCUGGGUGGCAGAAGCCAAAAGACCUUAUUAACGAGGCUAUAUUUUUCUUAACUUGAUCUGCAAUGGAAUUCUCGGGUGCCAA: 0.369
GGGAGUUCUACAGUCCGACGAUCACCAAUGGGUCCCCUAUAUCUCUCUAGAGGAACGUGAGACCCACUCCAAACAUCUAAAGCAACUGUCGAGUUGCUGUCCCCUAAAAAAAGUAAAUAAAAUACAUAUUUGAUGGAAUUCUCGGGUGCCAA: 0.554
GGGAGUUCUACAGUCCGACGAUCUUCAUUUGUCAGAUCCAGUUUUCCUACAUACAUCUUUGUUCACAGUAUGCUAAGGGGAAAAAAAAAUUUAGGAUAGAAAACUUGAGCAUUGUAUAUGUUUCCUGGAUGUCUGGAAUUCUCGGGUGCCAA: 0.824
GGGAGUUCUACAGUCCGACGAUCCCAGGGCCCCACCCUGGGCUGGACAAUCAGAUCCCAAAGGAAUGCCAAAGGGGACUCGGUUGGGAGAGCCGCUUAGGGGCCAGACCUGGGUCCCCCUGCAGGUCCCCAGGUGGAAUUCUCGGGUGCCAA: 0.764
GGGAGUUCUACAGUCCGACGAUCACUCAGGUAAUCUCCAUUUCUGGUUUUAUAUUUUCUGUACAAACUGCCUGGGUUUUAUUUUUCUAAUCAGCAAGGUGCUUCACUGCCUUCUUGAGACGCCUCUCAAAGCUUGGAAUUCUCGGGUGCCAA: 0.386
